Assay results from different studies.
Lines come from different studies, so protocols differ.

Cc1c(CN(C)C(=O)/C=C/c2cnc3c(c2)CC(N)C(=O)N3)oc2ccccc12 (centres unmarked)  MIC (Escherichia coli; broth microdilution; AR-0085): 16 µg/mL
N=C(N)NCCC[C@@H]1NC(=O)[C@@H](CCCNC(=N)N)NC(=O)[C@H](CCCNC(=N)N)NC(=O)[C@@H](C(c2ccccc2)c2ccccc2)NC(=O)[C@@H](C(c2ccccc2)c2ccccc2)NC(=O)[C@@H](C(c2ccccc2)c2ccccc2)NC(=O)[C@@H](CCCNC(=N)N)NC1=O  MIC (Candida parapsilosis; ATCC 22019): 8 µg/mL
C=C(NC(=O)c1csc(-c2nc3c(cc2O)-c2nc(cs2)C(=O)NC(C(C)O)C(=O)NC(=C(C)OC)c2nc(cs2)C(=O)NC2c4nc(cs4)C(=O)NC(COC(=O)c4c5c6c(cccc6n4O)COC(=O)C(OC4CC(C)(O)C(N(C)C)C(C)O4)C2OC5)c2nc-3cs2)n1)C(N)=O (centres unmarked)  MIC (Staphylococcus aureus; microbial growth, agar dilution; ATCC25923): 0.0078 µg/mL
Oc1c(Br)cc(Br)c2nc3c(C(F)(F)F)cc(C(F)(F)F)cc3nc12  MIC (Staphylococcus aureus; 147 MRSA clinical isolate): 0.1 µM
CC1C=CC=CC(C)C2C=CC3CC(C)(O)C(Cl)C(C)C3C2C(=O)C(Cl)(Cl)C(=O)C(C)C(=O)O1 (centres unmarked)  MIC (Staphylococcus aureus; MSSA clinical isolate; resistant PEN/CLI/ERY/SXT): 0.1 µg/mL
N=C(N)NCCC[C@@H]1NC(=O)[C@H](CCCNC(=N)N)NC(=O)[C@@H](CCCNC(=N)N)NC(=O)[C@@H](CCCNC(=N)N)NC(=O)[C@@H](C(c2ccccc2)c2ccccc2)NC(=O)[C@@H](Cc2c[nH]c3ccccc23)NC(=O)[C@@H](C(c2ccccc2)c2ccccc2)NC1=O  MIC (Candida parapsilosis; ATCC 22019): 16 µg/mL
C=C[C@]1(C)C[C@@H](OC(=O)CSc2ccc(NC(=O)c3ccco3)cc2)[C@]2(C)[C@H](C)CC[C@]3(CCC(=O)[C@H]32)[C@@H](C)[C@@H]1O  MIC (Mycoplasma gallisepticum; chicken lung isolates; 30 mg/kg to chickens): 0.00195 µg/mL
C[C@@H]1C(=O)O[C@@H](C)/C=C/C=C\[C@@H](C)[C@@H]2C=C[C@@H]3C[C@@]4(C)O[C@H]4[C@@H](C)[C@H]3[C@@H]2C(=O)C(Cl)(Cl)C1=O  MIC (Staphylococcus aureus; MRSA clinical isolate; resistant OXA/GEN/TET): 0.025 µg/mL

Some of these lines once more:
N=C(N)NCCC[C@@H]1NC(=O)[C@@H](CCCNC(=N)N)NC(=O)[C@H](CCCNC(=N)N)NC(=O)[C@@H](C(c2ccccc2)c2ccccc2)NC(=O)[C@@H](C(c2ccccc2)c2ccccc2)NC(=O)[C@@H](C(c2ccccc2)c2ccccc2)NC(=O)[C@@H](CCCNC(=N)N)NC1=O  MIC (Candida parapsilosis; ATCC 22019): 8 µg/mL
